Results pooled from the literature.
Parts stem from different laboratories: compare values within a part only.

Study 1
Target: Interferon regulatory factor 7, full length, phosphomimetic (IRF7, Homo sapiens, UniProt Q92985, residues 1-503, S471D/S472D/S475D/S476D/S477D/S483D/S484D/S487D)
Method: protein-binding microarray
Molecule type: double-stranded DNA, one strand shown
Matrix: in vitro
Concentration: 2200 nM top
Notes: 60-bp whole probe
Together with: salmon DNA 0.4 mg/ml
Baseline: random background probes
Reading: higher = stronger binding
Shared flanks, not repeated: GCCTAGCAC … GTCTTGATTCGCTTGACGCTGCTG
Residues (chain): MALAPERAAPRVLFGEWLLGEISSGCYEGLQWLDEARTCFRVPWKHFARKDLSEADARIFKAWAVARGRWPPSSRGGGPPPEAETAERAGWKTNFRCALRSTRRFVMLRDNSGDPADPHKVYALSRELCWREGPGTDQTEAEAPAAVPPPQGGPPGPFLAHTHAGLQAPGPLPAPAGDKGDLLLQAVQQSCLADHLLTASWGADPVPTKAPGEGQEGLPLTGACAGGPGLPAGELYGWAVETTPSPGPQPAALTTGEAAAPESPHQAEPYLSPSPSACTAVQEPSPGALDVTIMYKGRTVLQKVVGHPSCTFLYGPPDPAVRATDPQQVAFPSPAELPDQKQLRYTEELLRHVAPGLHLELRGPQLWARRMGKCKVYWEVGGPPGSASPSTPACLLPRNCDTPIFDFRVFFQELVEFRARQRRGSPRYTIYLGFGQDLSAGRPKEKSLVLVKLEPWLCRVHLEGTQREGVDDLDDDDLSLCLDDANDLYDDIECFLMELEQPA
Strand	fitted relative affinity [z-score]
TTTGATATCAGACTGGATTAGTGCTAG	0.141
GACGCACTGGGACTGGGGACGTGCTAG	-0.538
GACGATATCCTACTGCTGACGTGCTAG	0.944
GACGGTTTCGTCTTTCGGGACGTGCTA	7
TTAGGTTTCGGGACTGGGTTGGTGCTA	3.28
TTAGATCTCACTCTCGATTAGTGCTAG	0.876
TTAGCTATCGGGTATCGGTTAGTGCTA	0.516
TTAGGAGTGGACTTTCGGTTAGTGCTA	5.02
GACGGACTGGAGTTTCGGGACGTGCTA	1.27
TCATGCTTCTGTATTCAACTGTGCTAG	1.42
GACGGTTCCGGTTTCGGGATGTGCTAG	6.48
TTAGGTTTCGGGTTTCGATTAGTGCTA	9.86
TTAGGTATCGACACTGGGTGAGTGCTA	-0.109
GACGATTTCAGTCTCTAGACGTGCTAG	1.1
TCATGCTTTCTTTTATGACTGTGCTAG	1.57
GACGGACTGCTTTTCGTGACGTGCTAG	0.724
GACGATCTGAGTTTCGAGACGTGCTAG	2.21
TAAGGTATCGGGTTTCGGTTAGTGCTA	3.82
GAGGATCTCAGTATCGAGACGTGCTAG	-0.0574

Study 2
Target: Prothrombin, mature alpha-thrombin (F2, Homo sapiens, UniProt P00734)
Method: aptamer microarray, sandwich
Molecule type: DNA with 2'F-ANA
Matrix: in vitro
Concentration: 200 nM
Notes: whole 15-mer aptamer, many near background
Together with: Cy3 exosite-II aptamer, 400 nM
Reading: higher = stronger binding
Strand: GGTTGGTGTGGTTGG
Modification	mean fluorescence intensity
2'F-ANA at 2 3 4 5 6 8 11 12 13 14	62.1 a.u.
2'F-ANA at 1 6 10 11 12 13 14 15	50.8 a.u.
2'F-ANA at 3 4 5 10 12 14 15	48.4 a.u.
2'F-ANA at 2 3 4 6 7 9 14	224 a.u.
2'F-ANA at 1 3 6 7 13 15	196 a.u.
2'F-ANA at 2 4 5 6 11 13 15	54.8 a.u.
2'F-ANA at 3 4 5 6 10 12 13 14	119 a.u.
2'F-ANA at 1 2 3 5 7 8 11 13 14 15	49.3 a.u.
2'F-ANA at 3 5 6 7 8 9 14	56 a.u.
2'F-ANA at 1 5 6 8 10 11 13 14	48 a.u.
2'F-ANA at 5 9 10 11 12 14	46.7 a.u.
2'F-ANA at 2 8 9 10 12 13	180 a.u.
2'F-ANA at 2 4 6 7 8 9 11 12	470 a.u.
2'F-ANA at 2 3 5 6 7 8 12	236 a.u.
2'F-ANA at 1 3 5 7 8 12 13 14	58.4 a.u.
2'F-ANA at 2 4 6 7 8 10 12	129 a.u.
2'F-ANA at 2 3 5 8 11 14 15	54.9 a.u.
2'F-ANA at 2 6 7 8 9 13 14	122 a.u.
2'F-ANA at 1 2 3 4 10 11 13 14	66.3 a.u.
2'F-ANA at 2 6 7 8 10 15	121 a.u.
2'F-ANA at 1 3 6 7 8 10 14	64 a.u.
2'F-ANA at 4 12 14	153 a.u.
2'F-ANA at 1 4 5 6 8 11 13 15	56.1 a.u.
2'F-ANA at 2 5 6 7 8 11 12 13	105 a.u.

Study 3
Target: RING finger protein unkempt homolog, zinc fingers 1-6, GST-SBP tag (UNK, Homo sapiens, UniProt Q9C0B0, residues 30-357)
UniProt Q9C0B0, sequence (30-357, looked up): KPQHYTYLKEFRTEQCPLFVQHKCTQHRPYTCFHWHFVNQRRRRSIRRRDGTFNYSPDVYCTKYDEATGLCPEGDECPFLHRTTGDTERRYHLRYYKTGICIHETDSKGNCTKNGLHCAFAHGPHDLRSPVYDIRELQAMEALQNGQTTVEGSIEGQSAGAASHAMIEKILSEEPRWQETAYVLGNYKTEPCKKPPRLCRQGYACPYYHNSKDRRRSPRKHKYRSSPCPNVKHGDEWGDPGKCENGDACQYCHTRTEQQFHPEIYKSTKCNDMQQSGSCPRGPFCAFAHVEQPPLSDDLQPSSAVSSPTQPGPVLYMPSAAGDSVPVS
Method: RNA Bind-n-Seq
Molecule type: RNA
Matrix: in vitro
Concentration: not given
Notes: RNA with constant flanks, human and mouse sites, ends assumed
Baseline: input RNA pool
Reading: higher = stronger binding
Shared flanks, not repeated: GGGAGUUCUACAGUCCGACGAUC … CAACAGAGGAUUGAGCAUCA
Strand	bound/input enrichment [ratio]
ACUUUAUGUUUUGUUGAAAAUAGUGGCCAAAGGGAGUCAUUAAGUGGAGACACAGGAAGUCUGUCAUGUGACAAUGCAUUGUUUGUAAUUGACACAACUCCUGGAAUGAGUGCUGAUAAA	0.211
GUUGACAACUCACAGGUGAUUAAGAAAGAGGAUUUAUGCAUUUCUCCAGGCAAGCUUGCUUGGGUUCUAUACUGUGACCUCAUUUGUCUAGACUACGAUGGGAACAUUUUGGAUGCCUGC	0.301
UUGGAAAAUGGAUAUACCUUAUUUGAUUAUGAUGUUGGACUGAAUGAUAUAAUUCAGCUGCUAGUUCGCCCAGACCCUGAUCAUCUUCCUGGCACAUCUACACAGAUUGAGGCUAAACCC	0.234
GGUCGUGGUGUUUUAAAAGCAUAAGUUACCUGUUUGCACUGUUUUAAGAUAGGAAAAAAAAAUAGUGGGCAAGGUGAACAUCAGACGUAAAUUUGUGUGUUUUUAUUUUGUCAUGCUCUU	0.431
GUCACAACAACCUUGAAAGUAGUAGAAAAAGGAUUCAUCAACAUCUCCCCUGUGAAGAACACUACAGUAUUUGUAACCGAUGGAGAAAACGUAGAUUUGGUUGUUGAAUACGAGGCCUAC	0.681
UCAUAUAUACCAGGUUUCCUCUUUGCAGUAAAUGGGAAGCCUUACUUUGGAGACCAAGAACCCGUGCAAGGAUUUGUGAUGAACUUUUCCAGUGGGGAAAUUAUAGAUGUUUUCAAACCA	0.24
GCCAUCAACCGCCAGAUCAACCUGGAGUUGUAUGCCUCCUACGUCUAUCUGUCUAUGUCUUGUUAUUUUGACCGAGAUGAUGUGGCUCUGAAGAACUUUGCCAAAUACUUUCUCCACCAA	0.346
UUAAAGUUGUUGGCAGAGAUGAGUUCAUUUUGUGGUGACAUGGAAAAACUAGAAACAAAUUUAAGAAAACUGUUUGAUAAGUUAUUGGAGUAUAUGCCUCUCCCUCCAGAAGAAGCAGAA	1.89

Study 4
Target: Sal-like protein 4, full length isoform B (SALL4, Homo sapiens, UniProt Q9UJQ4-2, residues 1-616)
Method: universal PBM
Molecule type: double-stranded DNA, one strand shown
Matrix: in vitro
Concentration: not given
Notes: 8-mer, flanks averaged, mean of replicates
Reading: higher = stronger binding
Strand	E-score
AGGCATAC	0.0624
AAGAGCGG	-0.231
AAAGCTCA	0.00687
CCTAGCGC	-0.279
GGTCTGTA	-0.134
CCTGCCGC	-0.343
CGACTCTC	-0.148
AGGTCTTG	-0.163
AGCTTGTG	-0.0896
ACCCCAGA	-0.194
TTAGGAAA	0.172
CGTACGGA	-0.0821
GTTGCAAA	0.0588
CTAAGCTC	-0.135
CGTACGTA	0.142
CAGCATCA	-0.0184
CTTCTAGA	-0.029
AGCTCAAT	0.0202

Repeated from above (study 2):
Modification	mean fluorescence intensity
2'F-ANA at 3 4 5 10 12 14 15	48.4 a.u.
2'F-ANA at 2 3 4 6 7 9 14	224 a.u.
2'F-ANA at 1 3 6 7 13 15	196 a.u.
2'F-ANA at 2 4 5 6 11 13 15	54.8 a.u.
2'F-ANA at 3 4 5 6 10 12 13 14	119 a.u.
2'F-ANA at 1 2 3 5 7 8 11 13 14 15	49.3 a.u.
2'F-ANA at 3 5 6 7 8 9 14	56 a.u.
